Measured values pooled from the literature.
Protocols differ between the studies behind these lines.

CC(=O)c1c(C)c2cnc(Nc3ccc(C4CCN(CCS(C)(=O)=O)CC4)cn3)nc2n(C2CCCC2)c1=O
AUC(0-inf) (human, dose-escalation trial, plasma; oral, 150 mg twice daily, day 21, multiple doses): 6.14 µg·h/mL

CC[C@H](C)[C@H](NC(=O)[C@H](CC(C)C)NC(=O)[C@H](Cc1c[nH]c2ccccc12)NC(=O)[C@H](CCC(N)=O)NC(=O)[C@@H](NC(=O)[C@H](Cc1ccccc1)NC(=O)[C@H](C)NC(=O)[C@H](CCCCNC(=O)COCCOCCNC(=O)COCCOCCNC(=O)CC[C@H](NC(=O)CCCCCCCCCCCCCCCCCCC(=O)O)C(=O)O)NC(=O)[C@H](CCC(N)=O)NC(=O)[C@H](C)NC(=O)[C@@H](NC(=O)[C@H](CCCCN)NC(=O)[C@H](CC(=O)O)NC(=O)[C@H](CC(C)C)NC(=O)C(C)(C)NC(=O)[C@@H](NC(=O)[C@H](CO)NC(=O)[C@H](Cc1ccc(O)cc1)NC(=O)[C@H](CC(=O)O)NC(=O)[C@H](CO)NC(=O)[C@@H](NC(=O)[C@H](Cc1ccccc1)NC(=O)[C@@H](NC(=O)CNC(=O)[C@H](CCC(=O)O)NC(=O)C(C)(C)NC(=O)[C@@H](N)Cc1ccc(O)cc1)[C@@H](C)O)[C@@H](C)O)[C@@H](C)CC)[C@@H](C)CC)C(C)C)C(=O)N[C@@H](C)C(=O)NCC(=O)NCC(=O)N1CCC[C@H]1C(=O)N[C@@H](CO)C(=O)N[C@@H](CO)C(=O)NCC(=O)N[C@@H](C)C(=O)N1CCC[C@H]1C(=O)N1CCC[C@H]1C(=O)N1CCC[C@H]1C(=O)N[C@@H](CO)C(N)=O
AUC(0-inf) slope versus CLcr (human; subcutaneous, 5 mg, Cockcroft-Gault creatinine clearance): -136 ng.h/mL per mL/min

COc1ccc(C[C@@H]2NC(=O)[C@H]([C@@H](C)O)NC(=O)[C@@H]3[C@@H]4CCN3C(=O)[C@@H]3Cc5cn(c6ccc(F)cc56)CCCCCCN(Cc5ccc(cc5)CCNC(=O)[C@]5(C)CCCN5C2=O)C(=O)CCC(=O)N[C@@H](C)C(=O)N[C@H](CNC(=O)CCCCC[N+](C)(C)C)C(=O)N[C@@H](Cc2cccc(c2)CNC(=O)CO4)C(=O)N3)cc1
AUC(0-inf) (human, plasma; oral, 40 mg single, fasted (high-fat comparison), geometric mean, together with: sodium caprate 720 mg): 0.758 µM·h

Cc1ncc2n1-c1ccc(Cl)cc1C(c1ccccc1F)=NC2
AUC(0-inf) (human, plasma; oral, dose not given, single dose, geometric LS mean, together with: rimegepant): 0.0515 µg·h/mL

Cc1ncc2n1-c1ccc(Cl)cc1C(c1ccccc1F)=NC2
AUC(0-inf) decrease (human; oral, dose not given, together with: omaveloxolone; baseline: substrate alone): 45%

OCc1ncc2n1-c1ccc(Cl)cc1C(c1ccccc1F)=NC2
AUC(0-inf) (human, plasma; oral, 7.5 mg of midazolam, day 19, arithmetic mean, no amenamevir): 0.045 µg·h/mL

C[C@]1(CO)Cc2ncn(-c3ccc(C#N)c(Cl)c3)c2C(=O)O1
AUC(0-inf) (human, plasma; 80 mg, first dose fasted): 17.6 µM·h

N.N.O=C([O-])C1(C(=O)[O-])CCC1.[Pt+2]
AUC(0-inf) (refers to: unbound platinum; human, plasma ultrafiltrate; intravenous, AUC 3, median, dose level -1): 36.7 µg·h/mL

O=c1ccc2ncc(=O)n3c2n1C[C@H]3CN1CCC(NCc2cc3c(cn2)OCCC3)CC1
AUC(0-inf) (healthy human volunteers, plasma; oral, 1500 mg, arithmetic mean, alone): 18.4 µg·h/mL

Cn1nc(NS(C)(=O)=O)c2c(Cl)ccc(-n3c([C@H](Cc4cc(F)cc(F)c4)NC(=O)Cn4nc(C(F)F)c5c4C(F)(F)[C@@H]4C[C@H]54)nc4nc(OCCC(F)(F)F)ccc4c3=O)c21
AUC(0-inf) geometric mean ratio (human; oral, single dose; baseline: tablet over powder in bottle): 0.55

CNC(=O)n1ccc2cc(Oc3ccnc(NC(=O)c4ccc(C5CCN(CCO)CC5)cc4)c3)c(OCCOC)cc21
AUC(0-inf) reduction (healthy human, plasma; oral, 35 mg, together with: high-fat meal; baseline: fasted): ~23%

Repeated from above:
Cc1ncc2n1-c1ccc(Cl)cc1C(c1ccccc1F)=NC2
AUC(0-inf) decrease (human; oral, dose not given, together with: omaveloxolone; baseline: substrate alone): 45%

CC(=O)c1c(C)c2cnc(Nc3ccc(C4CCN(CCS(C)(=O)=O)CC4)cn3)nc2n(C2CCCC2)c1=O
AUC(0-inf) (human, dose-escalation trial, plasma; oral, 150 mg twice daily, day 21, multiple doses): 6.14 µg·h/mL
